Results gathered from unrelated publications.
Every numbered part comes from another study and shows a few of its results, in no order.

Set 1
Target: Centromere-binding protein 1, full length, N-terminal tag (CBF1, Saccharomyces cerevisiae, UniProt P17106, residues 1-351)
Chain of UniProt P17106 (whole entry, looked up): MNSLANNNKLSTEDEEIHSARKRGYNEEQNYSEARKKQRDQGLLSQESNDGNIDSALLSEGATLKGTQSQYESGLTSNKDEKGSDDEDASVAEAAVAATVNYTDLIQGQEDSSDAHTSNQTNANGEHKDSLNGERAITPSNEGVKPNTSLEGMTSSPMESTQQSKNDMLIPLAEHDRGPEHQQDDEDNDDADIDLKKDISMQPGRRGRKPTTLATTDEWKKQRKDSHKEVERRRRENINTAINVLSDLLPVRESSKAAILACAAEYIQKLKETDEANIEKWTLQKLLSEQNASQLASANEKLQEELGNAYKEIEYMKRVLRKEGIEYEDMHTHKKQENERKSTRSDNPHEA
Technique: protein-binding microarray
Molecule type: double-stranded DNA, one strand shown
Sample: in vitro
Concentration: 0.8 µM
Notes: whole 60-bp probe, no competitor
Reading: higher = stronger binding
Constant ends, left off below: … GTCTTGATTCGCTTGACGCTGCTG
Sequence | fluorescence intensity
GAATGTCTTTAAGTCCATCACATGGTGTTTTATTAG | 2700 a.u.
CTATTTTACGCTACGCACGTCATCGATGTATACTTC | 517 a.u.
CCTAACTACTATAATCATCATTAATAGCTTCGTACA | 530 a.u.
TGTACGAAGCTATAGACCGTGCCTATAGTAGTTAGG | 559 a.u.
CTAAGAAACTGCAGCATCATGATGTTCCTAGACTTC | 482 a.u.
GAAAATACATTATCATACATGATGCAAAAATACTAG | 550 a.u.
CTAACATAAAGGAAGCGCGTGATGTATCAGTAATTC | 1090 a.u.
CTAATCCTATGACAGGTGACCACAAGCCCCTCATTC | 2350 a.u.
GAAGAAAAGTAGGAATTCGTGATTGCTAGTATTTAG | 496 a.u.
CTAATGACACGATAGCATGTGCTTTTCGACGGCTTC | 679 a.u.
TGTACGAAGCTATTTTATCACATTATAGTAGTTAGG | 599 a.u.
CTAGCTCCTACACATCAGATCGTCAAGTACATTTTC | 547 a.u.
CTAGCCTAAAGACACAACGTGTTTGTTAATTATTTC | 733 a.u.
CTAGTCAGTATTTATAGCGTGATAGTTCATTACTTC | 622 a.u.
CCTAACTACTATAATCACCAGATATAGCTTCGTACA | 523 a.u.
GAATCCTCGGAGAAACACGGGAATATTTGAAACTAG | 522 a.u.
CTAGGAGATAGTGTAACCGTGACTTCATTTTTCTTC | 766 a.u.
CTAATATGCATATATACCGTCATGAAGTAGCTTTTC | 520 a.u.
CTAACATGACTGGACGGTGATGCAGTAGCTGTTTTC | 516 a.u.

Set 2
Target: PABPC1L2, full length, GST fusion (mouse, UniProt A0ABA7IW68)
Technique: RNAcompete
Molecule type: RNA
Sample: in vitro
Concentration: 20 nM
Notes: 7-mer, probes averaged, single round
Reference: mean of 7-mers
Reading: higher = stronger binding
Construct (chain): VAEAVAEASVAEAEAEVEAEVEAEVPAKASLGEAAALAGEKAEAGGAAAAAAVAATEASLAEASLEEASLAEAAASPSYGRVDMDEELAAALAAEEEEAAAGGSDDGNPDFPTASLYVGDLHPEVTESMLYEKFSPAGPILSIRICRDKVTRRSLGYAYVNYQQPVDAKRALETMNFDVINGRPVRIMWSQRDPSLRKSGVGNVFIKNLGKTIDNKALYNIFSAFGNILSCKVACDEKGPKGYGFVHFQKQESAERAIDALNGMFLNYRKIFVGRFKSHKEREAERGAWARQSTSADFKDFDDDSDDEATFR
Sequence | 7-mer Z-score
CGGCUCU | -0.0881
CUAGCGA | -0.115
GGUCGGG | 0.0932
GUUGAAA | 0.336
UGCCAAU | -0.213
GUGCGAA | 0.146
CAAACUA | 0.196
UCCUUCC | -0.441
CCCGCGU | -0.311
AGCCGAC | -0.186
CAGCGCC | -0.0337
CUCCCAA | -0.0699
ACUAUCC | -0.325
GAGGUGC | 0.249
ACUAGGG | 0.331
UAAGUAG | -0.0971
AUCCCUA | -0.3
GAAGGUA | 0.046
UGGGAGA | 0.0932
AUGGUCA | 0.037
UUGAUAG | -0.18
GAGAUAU | -0.157
GCCUGCG | -0.262
UAUUUGC | -0.403
CGGUAUU | -0.302

Set 3
Target: TAR DNA-binding protein 43, full length, His tag (TARDBP, Homo sapiens, UniProt Q13148, residues 1-414)
Technique: RNA Bind-n-Seq
Molecule type: RNA
Sample: in vitro
Concentration: 20 nM
Notes: 6-mer, flanks averaged, single round
Added: 150 mM KCl
Reference: input library
Reading: higher = stronger binding
Sequence | 6-mer enrichment (R)
UGUACA | 0.66
UCUAUA | 0.551
UCAUCC | 0.552
GCACCA | 0.816
ACCUUU | 0.625
UCAGGC | 0.828
UCAGUG | 0.89
AUCCCA | 0.591
UAACGG | 0.955
ACUUAG | 0.633
GAUCUC | 0.604
CACUUC | 0.562
GAGACG | 1.65
CGCAUA | 0.656
ACGGUA | 0.779
AACUCG | 0.622
UGGAGA | 1.47
AACAUA | 0.638
CGGUGU | 1.27
GCGCCC | 0.807
UUCUGU | 0.609
CAGGCG | 1.69
GCAAGG | 2.04
UCGAGU | 0.78

Set 4
Target: Ras GTPase-activating protein-binding protein 1, RRM domain (G3BP1, Homo sapiens, UniProt Q13283)
Chain of UniProt Q13283 (whole entry, looked up): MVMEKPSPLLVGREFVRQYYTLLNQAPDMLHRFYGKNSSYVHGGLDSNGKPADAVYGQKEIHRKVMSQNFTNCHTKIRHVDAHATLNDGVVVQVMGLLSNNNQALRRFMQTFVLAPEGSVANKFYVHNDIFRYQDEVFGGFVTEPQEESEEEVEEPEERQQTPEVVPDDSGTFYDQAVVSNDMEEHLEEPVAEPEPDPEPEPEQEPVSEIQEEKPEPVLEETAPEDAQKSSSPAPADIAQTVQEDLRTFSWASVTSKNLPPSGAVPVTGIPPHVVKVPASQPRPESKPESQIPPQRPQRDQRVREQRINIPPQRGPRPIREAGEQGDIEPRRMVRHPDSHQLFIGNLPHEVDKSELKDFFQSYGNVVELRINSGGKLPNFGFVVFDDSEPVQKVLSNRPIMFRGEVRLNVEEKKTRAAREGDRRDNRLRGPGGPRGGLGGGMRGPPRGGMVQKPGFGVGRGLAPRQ
Technique: RNA Bind-n-Seq
Molecule type: RNA
Sample: in vitro
Concentration: 1 µM
Notes: whole 134-nt RNA, ends assumed
Added: 150 mM KCl
Reference: input library
Reading: higher = stronger binding
Constant ends, left off below: GGGAGUUCUACAGUCCGACGAUC … UGGAAUUCUCGGGUGUCAAGG
Sequence | log2 enrichment
AAGUCCUGUGCUACACAUCGUAUGUACCGAAUCGGCCCCCGGCCCCCGGCCCCCGGGAAAGUAUUAUGUUACGCCGUUCGGAUCUGCACU | -0.68
CUGUGCUACACAUCGUAUGUACCGAAUCGGGGUUUUUUUGGGUUUUUUUGGUUUUUUUGGGAAAGUAUUAUGUUACGCCGUUCGGAUCUG | -0.272
AUUAAUUUGUACACAGACAGGGAAACUGGCAAGCUGAAGGGAGAGGCAACGGUCUCUUUUGAUGACCCACCUUCAGCUAAAGCAGCUAUU | -0.248
AGUCCUGUGCUACACAUCGUAUGUACCGAAUCGGUUUUUUUGGAAAAAAAGGAAAGGAAAGUAUUAUGUUACGCCGUUCGGAUCUGCACU | -0.451
UUGAUGUUAGUAAAUUUGGUGUAAUACGUGGGGCUUCCAUAUUUCAAAGUGGAAGCUUUCUUCUCUGAAGUCGAUAUAUGGUUUUGAAUU | -0.195
CUCAAGUCCUGUGCUACACAUCGUAUGUACCGAAUCGGUUGGUUGGGGUUGGGAAAGUAUUAUGUUACGCCGUUCGGAUCUGCACUUCCA | -0.218
CCUCAAGUCCUGUGCUACACAUCGUAUGUACCGAAUCGGCCGGGGCCGGCCGGAAAGUAUUAUGUUACGCCGUUCGGAUCUGCACUUCCA | -0.31
UAACUUUAGAGGAGGAUCUGAUGGAUAUGGCAGUGGACGUGGAUUUGGGGAUGGCUAUAAUGGGUAUGGAGGUGGACCUGGAGGUGGCAA | -0.313
GCAGGAAGUAAAAACAAAUGGAAAUGCUUCGGAUAGUGGCAGGGGUGGGGGUUGCUAAAAAAAGGGUGGGAUGGGAGUGGGUAAAGAGUU | 1.55
GUCCUGUGCUACACAUCGUAUGUACCGAAUCGGGUUUUUGGGGUUUUUGGUUUUUGGGGAAAGUAUUAUGUUACGCCGUUCGGAUCUGCA | -0.114
CAAGUCCUGUGCUACACAUCGUAUGUACCGAAUCGGGAAAGGGAAAGGGAAAGGGAAAGUAUUAUGUUACGCCGUUCGGAUCUGCACUUC | 0.589
CACAGACAACACGCACCCACACAGACACAGAGGGAAGGGGUUGGGAUGGGGCCAGGGUGCACAGCAGGGCGGGGUAGGACCCCAGCCCCU | 0.00281
AGUCCUGUGCUACACAUCGUAUGUACCGAAUCGGGAAAAAGGGAAAGGGAAAAAGGGAAAGUAUUAUGUUACGCCGUUCGGAUCUGCACU | 0.315
UGGGAGGUGGAUUUUGUUUAUUUUUUUAGCUCAUUUCCCGGGGUGGGAAUUUUUUUUUAAUAUGUGUCAUGAAUAAAGUUGUUUUUGAAA | 1.59

Set 5
Target: Cln2 (Saccharomyces cerevisiae)
Read-out: peptide binding
Technique: competitive growth sequencing
Molecule type: peptide
Organism: Saccharomyces cerevisiae
Strain: unfused Cln2 strain
Notes: peptide tiling library
Reading: direction not given
Sequence | enrichment score
IPDRSTKPVVFSPT | 1.26
LFVPQRKLEVSTEDVH | -0.317
DSGFCLDSPGPLDSKE | 1.28
HRRRLLFACSPPPASQ | -1.19
ALTMEALEDPSPELME | 0.0523
VEEEFFALRKRTPSAG | 0.0651

Set 6
Target: RING finger protein unkempt homolog, zinc fingers 1-6, GST-SBP tag (UNK, Homo sapiens, UniProt Q9C0B0, residues 30-357)
Technique: RNA Bind-n-Seq
Molecule type: RNA
Sample: in vitro
Concentration: not given
Notes: RNA with constant flanks, human-mouse chimeric sites, ends assumed
Reference: input RNA pool
Reading: higher = stronger binding
Constant ends, left off below: GGGAGUUCUACAGUCCGACGAUC … CAACAGAGGAUUGAGCAUCA
Residues (chain): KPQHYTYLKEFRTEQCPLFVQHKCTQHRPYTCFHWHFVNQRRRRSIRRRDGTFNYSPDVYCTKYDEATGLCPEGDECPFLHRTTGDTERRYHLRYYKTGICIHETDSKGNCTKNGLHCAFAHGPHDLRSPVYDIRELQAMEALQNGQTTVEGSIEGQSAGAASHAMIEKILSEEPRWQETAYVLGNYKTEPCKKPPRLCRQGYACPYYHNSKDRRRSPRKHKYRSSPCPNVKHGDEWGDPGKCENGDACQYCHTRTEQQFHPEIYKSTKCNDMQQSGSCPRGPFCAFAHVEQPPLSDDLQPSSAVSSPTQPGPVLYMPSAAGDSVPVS
Sequence | bound/input enrichment
GACUUUGGGACUGGUCCUCGUAAUGCAGCCUUCUAUAGCCCUCAUGGACAUAUAUUAGUGCUGGCUGGAUUUGGAAAUCUUCGAGGACAAAUGGAAGUGUGGGAUGUUAAAAACUACAAG | 0.402 ratio
CAGUCCCCGUGUCCCAGUGCAGGACGAUGUGAACAAAUCGAAGACAUGGCCCUUUCUUUGUAGUUCUUGAUUCUCGAAAUGUGCUAUUAUUGUUUGUCUUUUUUUUUUUUUUUUUAAAGA | 1.18 ratio
GACUUUGGGACUGGUCCUCGCAACGCAGCCUUCUAUAGCCCUCAUGGACAUAUAUUAGUGCUGGCUGGAUUUGGAAAUCUUCGAGGACAAAUGGAAGUGUGGGAUGUGAAAAACUACAAG | 0.367 ratio
GGUGGGGUGGUCAUUGCCGUUUGAGCUGCUGAUUUUCAUGAGUCGCCUUCAAAACUCUCGUGUAGGGUUGACACUGUGGGGGGGUGGGGGAUCCAGCUAUUUUUUUUAUUUUCAAGUCCA | 1.81 ratio
GUGUCCUUUCAACUUAAAUCACUGAGGAGGCAUCUCUACUGUUCUGUGAGCAUCAGGACUGUAGCGCUGUGUCACCACAUGAGAGUUCAGAAGCAGCCUUUCUGUGGAGGGUGGGAAUGA | 0.163 ratio
AUAAAAGCCAUGUUGAGUGGUCCAGGUCAGUUUGCUGAGAAUGAAACCAACGAGGUCAAUUUUAGAGAGAUCCCCUCACAUGUGCUAUCAAAAGUGUGCAUGUAUUUUACCUACAAGGUC | 0.199 ratio
CAGUCCCGCGACAGCGUUGCAGGACGAUGUGAACAAAAACUCAAAGCGGCCCUUUCUUUGUAGUUCUUGAUUCUCGAAAUGUGCUAUUAUUGUUUGUCUUUUUUUUUUUUUUUUUAAAGA | 1.43 ratio
CGCUUGGAUGAGGCUGGUGUCACAGAUGAAGUGCUGGAUUCUGCCAUGCAAGCCUUCCUUCUGGAGGUCAUUGUUAAACAUGGGGAGCCGGCACCUUAUUUAUGUAACAAAGAUCCGUUU | 0.0958 ratio
CUCAGAGAUGUGGCAUAUCAGUAUGUGAAAAAGGGGGCUCGAAUUUAUGUGGAAGGGAAAGUGGACUAUGGCGAGUACAUGGAUAAAAACAAUGUGAGGCGGCAAGCAACAACAAUCAUA | 0.353 ratio
GACAGUGAAGAAGAGAUUAGAGAAGCAUUCCGUGUGUUUGAUAAGGAUGGCAAUGGCUAUAUUAGUGCUGCAGAACUUCGCCAUGUGAUGACAAACCUUGGCGAGAAGUUAACAGAUGAA | 0.474 ratio
AGCACAACCCCAGCAAAGCUCAGGAACCCUUGUACAAGUGAACAAAACUGCACCAGCCCAUUUAGCUACAAAAAUGUGCUUAGUCUUACUGACAGAGGAGAGUUUUUCAAUGAACUUGUU | 1.1 ratio

Repeated from above (set 4):
Sequence | log2 enrichment
UAACUUUAGAGGAGGAUCUGAUGGAUAUGGCAGUGGACGUGGAUUUGGGGAUGGCUAUAAUGGGUAUGGAGGUGGACCUGGAGGUGGCAA | -0.313
UUGAUGUUAGUAAAUUUGGUGUAAUACGUGGGGCUUCCAUAUUUCAAAGUGGAAGCUUUCUUCUCUGAAGUCGAUAUAUGGUUUUGAAUU | -0.195
CUCAAGUCCUGUGCUACACAUCGUAUGUACCGAAUCGGUUGGUUGGGGUUGGGAAAGUAUUAUGUUACGCCGUUCGGAUCUGCACUUCCA | -0.218
CCUCAAGUCCUGUGCUACACAUCGUAUGUACCGAAUCGGCCGGGGCCGGCCGGAAAGUAUUAUGUUACGCCGUUCGGAUCUGCACUUCCA | -0.31
AGUCCUGUGCUACACAUCGUAUGUACCGAAUCGGUUUUUUUGGAAAAAAAGGAAAGGAAAGUAUUAUGUUACGCCGUUCGGAUCUGCACU | -0.451
AGUCCUGUGCUACACAUCGUAUGUACCGAAUCGGGAAAAAGGGAAAGGGAAAAAGGGAAAGUAUUAUGUUACGCCGUUCGGAUCUGCACU | 0.315
